Assay results of several laboratories.
Numbered parts are unrelated; each lists some results of a single study.

Block 1
Target: Histone acetyltransferase KAT6A, both winged helices, GST fusion (KAT6A, Homo sapiens, UniProt Q92794, residues 1-181)
Method: protein binding microarray
Form: double-stranded DNA, one strand shown
Sample: in vitro
Tested at: not given
Setting: 8-mer, flanks averaged, mean of 2 arrays, mostly near background
Relative to: not given
Reading: higher = stronger binding
Residues (chain): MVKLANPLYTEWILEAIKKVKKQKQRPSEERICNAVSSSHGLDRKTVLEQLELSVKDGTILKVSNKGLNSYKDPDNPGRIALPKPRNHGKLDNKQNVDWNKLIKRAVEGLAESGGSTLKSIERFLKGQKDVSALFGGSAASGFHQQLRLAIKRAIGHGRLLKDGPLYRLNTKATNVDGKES
Oligonucleotide | E-score
ATACAGGG | 0.0211
TAGAGATA | -0.122
CCTATGAC | -0.103
TAGTCCAA | -0.17
ACCGGGTA | 0.165
TCAAAAGA | 0.0458
CAATAACC | -0.00956
CTTTCAGA | -0.0857
CTCTCATC | -0.23
GAAGTAGA | -0.195
AACGCTAC | 0.015
AAGTAGCG | 0.0887
CTGAATAA | -0.132
AGGCGGAC | 0.141
GGCGGCTA | 0.236
ATCAAGAG | -0.127
AGAAGTGC | -0.136
ACAAAGGA | -0.252
ACAACCGT | 0.0404
GGTGTTCA | -0.0132
AACTCTAA | -0.117
ACATTGAA | -0.049
GCTGTTGA | 0.0582

Block 2
Target: RNA binding protein fox-1 homolog 2, RRM domain, GST-SBP tag (RBFOX2, Homo sapiens, UniProt O43251-10, residues 100-194)
Method: RNA Bind-n-Seq
Form: RNA
Sample: in vitro
Tested at: 365 nM
Setting: natural RNA segment, single round, ends assumed
Relative to: no-protein control
Reading: higher = stronger binding
All sequences stand within: GGGAGUUCUACAGUCCGACGAUC … UGGAAUUCUCGGGUGCCAA
Construct (chain): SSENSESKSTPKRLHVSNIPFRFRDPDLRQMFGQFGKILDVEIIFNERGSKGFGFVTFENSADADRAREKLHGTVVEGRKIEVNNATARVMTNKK
Oligonucleotide | RBNS enrichment (R)
UAGAUAGACAUUAAAGUAAAGCAGCUGUUUGUUAUUGAUAAUAAAAUACUAAGUAUUAUAAAACUGCUUUUGGUCUGUUUCUCUCAAGUUCUGUAUUAUUUAUUCUAUCA | 0.86
AGCACAACACUAAUCCUGUUUCCUUAAACCUCCGUUCAAGUGCCCCUAUUUAUUUCAGUGAGAAUGCGUGUCCGGUUGCCUCUGUCCCUGUUUGUGCGUCCUUCCUCCCA | 0.544
UUUCAACCAGCGCUGCAAGAAGAGGAUGAGGAAAAUAUAAAAGGAAAAGAGGGAGAUGUUUUGUCCAGACCUACUAGACCCAACAGAAAAGGUUUUUGUAUUAGAAUCUG | 0.555
GGUUAGCUGAGAAAGAAAUCGGGCUGCUGCGGAGCACAGAGUGACUUGGAACUCCAUUCCACCUGACCCUGUGUGUACAAUCCAGGAAAACAAACCCCGCUCAGAAACAA | 0.268
GUUUCUAUGCCACUUUGGUCCCCAACCAAAGUGAAUCUGUCCCAUGUUAGGCACUCCUCUGACCUGAAUAAGUUUCCUUUCUCCUUUAUCAGUUCAAGGUGGGAGUCUUU | 0.538
GGAAUUAAUUUAUCAGCAGCCUAAAACUGUUGUGUUUUUCUUAUGGUUUAAAAAACGCCAUGUCAUUGAUAACUCCCUUUCUCCCUUCCCUUCUCCCGGUCUGCUGAUCA | 0.438
UAAAGUAGUUAUUAAAAUCAAGCACUUGAUACUAAUUUGAAGUGUGUUUAAAAGUAAAUGAUUUGGGAACUGACAAUGUGUCAGAAAAUAUAUGUUCAUUUAUCAUUUUA | 0.689
UGUAUGUCCUGUGCCUUUUCUCACUAUUGUUUGGGUGUGGGAGGGGGUGGUUUUUCACUGAAAAGGGGGGUACACCUAUAGCUUUCUUGAUGUUCAAUCAAUCAGUCACU | 0.674
GAGUUAGGACCAACGACUAUUAACUUGCAUUCACAUUAUCCUCACAGAACCAAGAGUGGCAAUGCUUUGGAGAAUAGCAGUCCAGCCUAGUUAACAUGGGGAAAGAUGAC | 0.516
ACAUUGUACAUUUAGUGUGUGUAUUUUAAUAAUGGUUGAUCUUAAAUCUGUAUACAAAAUAUCACUGAUAUAAUGAACUCUCUCUCUCUAGACAAGAUAAAUUUUGCCUC | 0.588
AAGCUAUAUUUAUACCAGUGUCACCCUUUUCUUGUAGAAUAUACUAAUAAUCUGUGCCAACUCUACCUUCUCACUUUUACCUCUGACGUCAUUCUUUUUUUCUGAAAGAG | 0.367
UGGUGGACGAUGAGGGCUUCGGUGAUGGCUUCACCCGAGAGGAGCCCGCCACGGUGGAUGUAUGUGCGCUCACCUGAGCUUGCUUGGGCCCAGUGUGGGGGUGGCAGGCA | 11

Block 3
Target: Protein C-ets-1 (ETS1, Homo sapiens, UniProt P14921, residues 1-441, K379A, full length assumed)
UniProt P14921, sequence (whole entry, unmodified, looked up): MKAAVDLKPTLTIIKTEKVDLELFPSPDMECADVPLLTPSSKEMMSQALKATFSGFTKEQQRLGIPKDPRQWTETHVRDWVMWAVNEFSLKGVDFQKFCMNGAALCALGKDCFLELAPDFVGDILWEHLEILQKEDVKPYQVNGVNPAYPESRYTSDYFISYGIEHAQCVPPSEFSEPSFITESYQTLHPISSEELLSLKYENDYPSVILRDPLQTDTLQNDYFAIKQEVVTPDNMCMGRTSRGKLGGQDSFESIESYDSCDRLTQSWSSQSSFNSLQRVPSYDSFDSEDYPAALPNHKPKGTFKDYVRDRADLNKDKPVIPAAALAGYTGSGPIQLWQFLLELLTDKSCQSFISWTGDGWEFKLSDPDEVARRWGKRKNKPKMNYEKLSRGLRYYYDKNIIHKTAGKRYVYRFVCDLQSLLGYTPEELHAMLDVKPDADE
Method: protein-binding microarray
Form: double-stranded DNA, one strand shown
Sample: in vitro
Tested at: not given
Setting: k-mer, scored over probes, only values ≥0.25
Reading: higher = stronger binding
Oligonucleotide | E-score
TACGGTAA | 0.262
GTAACACA | 0.267
TACCGTCA | 0.307
TGTATAAA | 0.311
CGGTTATC | 0.283
TCCGGTCA | 0.376
TACCGGTA | 0.475
ATCTGTCG | 0.276
CCGGGGCA | 0.306
ATGTTGCG | 0.25
TGACGGAA | 0.294
ATATACAG | 0.297
AAATGGTG | 0.264
TACCGGAA | 0.484
GCGTCGGA | 0.25
ACATGTAT | 0.308
TACAGCTA | 0.257
TACCGACA | 0.435
ATTTCCTG | 0.279
CCCCGACG | 0.28
CGACTACC | 0.25
GCGCCGGA | 0.254

Block 4
Target: RING finger protein unkempt homolog, zinc fingers 1-6, GST-SBP tag (UNK, Homo sapiens, UniProt Q9C0B0, residues 30-357)
UniProt Q9C0B0, sequence (30-357, looked up): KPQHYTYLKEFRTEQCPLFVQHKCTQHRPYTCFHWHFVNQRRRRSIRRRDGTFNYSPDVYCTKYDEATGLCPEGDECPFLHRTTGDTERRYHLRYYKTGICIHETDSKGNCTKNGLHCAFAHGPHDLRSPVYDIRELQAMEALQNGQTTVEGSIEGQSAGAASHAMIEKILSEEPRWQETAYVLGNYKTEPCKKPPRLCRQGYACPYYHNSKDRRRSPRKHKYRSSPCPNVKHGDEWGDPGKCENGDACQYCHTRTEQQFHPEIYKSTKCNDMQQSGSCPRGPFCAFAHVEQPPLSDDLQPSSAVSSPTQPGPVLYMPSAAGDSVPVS
Method: RNA Bind-n-Seq
Form: RNA
Sample: in vitro
Tested at: not given
Setting: RNA with constant flanks, human-mouse chimeric sites, ends assumed
Relative to: input RNA pool
Reading: higher = stronger binding
All sequences stand within: GGGAGUUCUACAGUCCGACGAUC … CAACAGAGGAUUGAGCAUCA
Oligonucleotide | bound/input enrichment
CCCUCCCCGGGCCACCCGCCCGCCCAAGCUCCCCGCCGAGAUCCAGGUUUCUUCUUAUUUCAUAGCAAAUAAGAAAAAUGUUCUACGCACAUUUUGUCCUCAGUAAAAGAGGGCCUCUGG | 1.32 ratio
CACACACUCUUCUGCGGGACCCUCAUCUUGCAGGCCCGGGCCUAUGUGGGACCGCACGUCCUGGCAGUGGUGACCCGCACAGGGUUCUGCACAGCCAAAGGGGGCCUGGUGAGCUCCAUC | 0.12 ratio
CAGCCUCAGAGCCCAGACUUCCUGGACAUUACCAACCCUAAAGCGGUAUUAGAAAACGCAUUGAGAAACUUCGCCUGUCUGACGACUGGAGAUGUGAUUGCUAUCAACUACAAUGAGAAG | 0.311 ratio
AGAGAUAAGACAUCCAGAAAUAUGAGAGGCUCCCGGAUGAAUGGACUGCCUAGCCCCACUCACAGCGCCCACUGUAGCUUCUACCGAACCAGAACCUUGCAGGCACUGAGUAAUGAGAAG | 0.5 ratio
CUGUGUGUGCUGAAUAAAUGGCUUGUAAAGAAGUUUUUCCAAGCUGUAACCCAUGCUUCCCUUAGAGUUGCUGCAAAAUGUCUCUUAUGAUAUUGAUUUUAUUUGUUAACUGAAGGUCUC | 0.546 ratio
AAGCAACGCAAACUUGAAACUACAGAAUAUCUUGCAGCCUCAGUGUUCACUUGCUUGGCGAUAGCAUUGGGGUUUUAUAGGUUCUGGAAGGAGAACUGACGAUGAUGCUGCCGCUGCUGC | 0.605 ratio
AUAAAGGCUAUGUUGAGUGGUCCAGGUCAGUUUGCUGAGAAUGAAACCAACGAGGUCAAUUUUAGAGAGAUACCUUCACAUGUGCUAUCAAAAGUGUGCAUGUAUUUUACGUACAAGGUC | 0.227 ratio
ACAGUUAUAUUGUUGAGUUUCAUUUUCAUAUAUUCUUAUGGUGUCUGCUUGCCUGUGACUUCUGGUAAAAUAAGACUAGCCUUUGAAAAUAUUUUAGCAUGGUAUUUAACAUUUUCUAAA | 3.07 ratio
UCUUUAAAAAAAAAAUUACCUUUUCUGACAGUGCUUUCCCUCCCAUAGGUCCAGGUUCACACUAGAAGAGCAAAGGCUUUGCACGGAGCUCAAACAUCUGAUGAAGAAAGAUUUCUGAGA | 0.444 ratio
AGAAUCUUGGGACUGUUUUGCUUGAUUGGUCAUUGAUAGCUUAACAAGCAUGGAGAUAAGAUUAGAAAUCUUGACAUCAACAGGUAUUAAGCAGAAAAAACCAUGGCCACGUGUCUCCUG | 0.103 ratio
UAAGUUAUUUUGUACAGCUUUGUAAAUUCUUAACAUUUUUAUAUUGCACAUUUUAUGUUUUUUAGAUAAUUUGGUUCAUUAAGUACAUAGCUAAGGUAAUGAACAUCUUUUUCAGUAAUU | 2.91 ratio

Block 5
Target: Centromere-binding protein 1, full length, His-tagged (CBF1, Saccharomyces cerevisiae, UniProt P17106, residues 1-351)
UniProt P17106, sequence (whole entry, looked up): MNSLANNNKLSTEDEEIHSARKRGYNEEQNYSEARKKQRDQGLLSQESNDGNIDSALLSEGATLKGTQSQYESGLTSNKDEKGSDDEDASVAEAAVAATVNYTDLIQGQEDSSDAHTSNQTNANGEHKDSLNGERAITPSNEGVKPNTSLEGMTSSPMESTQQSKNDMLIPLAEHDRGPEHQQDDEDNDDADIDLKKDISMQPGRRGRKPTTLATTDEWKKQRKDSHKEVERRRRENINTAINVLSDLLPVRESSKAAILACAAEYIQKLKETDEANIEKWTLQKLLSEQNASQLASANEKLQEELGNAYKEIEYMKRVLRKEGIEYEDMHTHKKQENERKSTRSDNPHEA
Method: competition protein-binding microarray
Form: double-stranded DNA, one strand shown
Sample: in vitro
Tested at: 2 µM
Setting: whole 60-bp probe, lowest competitor level
With: Pho4 competitor, 0.05 µM
Reading: higher = stronger binding
All sequences stand within: … GTCTTGATTCGCTTGACGCTGCTG
Oligonucleotide | fluorescence intensity [a.u.]
CTAACGAAGGTTTGACAAGTGGGTGACAAGCCAAGT | 62
CAAACCACTATATCGCACGCACACCAGGAAAGTAAA | 87.8
GGATTATTGATAGCCAACGTGCTTTGTTGGAAGACG | 136
AAATTACTAAGTTTTCACGTGAAATACCCCGTATGA | 785
TGCGCAACAACTTGACCTGTGGGTGTATGTCTAGAA | 63.9
CGTCCTAGTGATTGTCACTTGACTTCCATGAGGAAG | 166
ATTGTCGCTGATAAAATCGTGATGGTCGATCAATGT | 99
GTCTTGTCTCATTGCACTGTGGGTGTCCCCACTTCA | 73.3
GACATATTACATTTCCTCGTGCTTTTCGAAGTATTT | 212
CTTTCCCGATCTTGTAGTGTGGGTGTAGCACATTTG | 71.9
CATACCCAACCTTTTCACGTGGTCTAAGATATTTGT | 2110
TTGTCCTCGATACGGCATGCGTATAAAGAGATATAA | 85.5
GAAAAAAAATTCTTACGCGTGAACCAAAACAAAAAT | 121
CTTTCCCGATCTTGCGTCGTGGGTGTAGCACATTTG | 60.9
CGGGGTTAAGTTTGGCTCGTGGGTGGCTTGCAGCAG | 80.9
CATCATATATGTCGGCACGTTTTTCCATTCAGGAAA | 304
CATTTCCATCGATGCCATGTGACAGGGTGAATCTCG | 755
ATAAGAGTACTGTTCCACGTGTTTCGATTGCCTTTA | 755
CTTGTTTGGCTTGCTCACATGGGGCTACAGGTAAAA | 145
TACATAGTAACGTATCACCTGTTTTACTTTCAAGAT | 228
AAACTGGCAGCGATATGCATGACAGTGGGGAAAGTA | 62.2

Block 6
Target: Sal-like protein 4, full length isoform B (SALL4, Homo sapiens, UniProt Q9UJQ4-2, residues 1-616)
Method: universal PBM
Form: double-stranded DNA, one strand shown
Sample: in vitro
Tested at: not given
Setting: 8-mer, flanks averaged, mean of replicates
Reading: higher = stronger binding
Oligonucleotide | E-score
CCGTGCAA | -0.113
GCTGCAAC | -0.149
ATCCGAGG | -0.161
AGTTCGCC | -0.0361
CTAATAGA | 0.189
GCTGGATA | 0.123
GAAAACCA | 0.00453
ATAGTAAC | 0.213
GCTTCGCC | -0.196
CTCAACTA | -0.0194
GATTAGTA | 0.2
GCTGTGTA | 0.00572
CTCGCGAG | -0.221
CATCCACG | 0.0142
CGGTTCAA | -0.184
CCCCTGCA | -0.339
TCACTAGA | 0.118
AGTTTATG | 0.264
TGGTACAA | 0.119
AGCGCTCC | -0.181
ACCGCTTA | -0.12
ATCTGCAG | -0.0226
AGCTGTAG | -0.012
ACACGGTG | -0.141
AGAGACAG | -0.131

Repeated from above (block 1):
Oligonucleotide | E-score
ACAAAGGA | -0.252
CTGAATAA | -0.132
TAGTCCAA | -0.17
GCTGTTGA | 0.0582
CTCTCATC | -0.23
ATACAGGG | 0.0211
AGGCGGAC | 0.141
AACGCTAC | 0.015
AACTCTAA | -0.117
AGAAGTGC | -0.136
ACCGGGTA | 0.165
GGCGGCTA | 0.236
TCAAAAGA | 0.0458
